Published values from different studies.
Each numbered part is a random draw from the data of one study; scales do not carry over between parts.
Sequence of UniProt Q9Y2K2 (whole entry, looked up): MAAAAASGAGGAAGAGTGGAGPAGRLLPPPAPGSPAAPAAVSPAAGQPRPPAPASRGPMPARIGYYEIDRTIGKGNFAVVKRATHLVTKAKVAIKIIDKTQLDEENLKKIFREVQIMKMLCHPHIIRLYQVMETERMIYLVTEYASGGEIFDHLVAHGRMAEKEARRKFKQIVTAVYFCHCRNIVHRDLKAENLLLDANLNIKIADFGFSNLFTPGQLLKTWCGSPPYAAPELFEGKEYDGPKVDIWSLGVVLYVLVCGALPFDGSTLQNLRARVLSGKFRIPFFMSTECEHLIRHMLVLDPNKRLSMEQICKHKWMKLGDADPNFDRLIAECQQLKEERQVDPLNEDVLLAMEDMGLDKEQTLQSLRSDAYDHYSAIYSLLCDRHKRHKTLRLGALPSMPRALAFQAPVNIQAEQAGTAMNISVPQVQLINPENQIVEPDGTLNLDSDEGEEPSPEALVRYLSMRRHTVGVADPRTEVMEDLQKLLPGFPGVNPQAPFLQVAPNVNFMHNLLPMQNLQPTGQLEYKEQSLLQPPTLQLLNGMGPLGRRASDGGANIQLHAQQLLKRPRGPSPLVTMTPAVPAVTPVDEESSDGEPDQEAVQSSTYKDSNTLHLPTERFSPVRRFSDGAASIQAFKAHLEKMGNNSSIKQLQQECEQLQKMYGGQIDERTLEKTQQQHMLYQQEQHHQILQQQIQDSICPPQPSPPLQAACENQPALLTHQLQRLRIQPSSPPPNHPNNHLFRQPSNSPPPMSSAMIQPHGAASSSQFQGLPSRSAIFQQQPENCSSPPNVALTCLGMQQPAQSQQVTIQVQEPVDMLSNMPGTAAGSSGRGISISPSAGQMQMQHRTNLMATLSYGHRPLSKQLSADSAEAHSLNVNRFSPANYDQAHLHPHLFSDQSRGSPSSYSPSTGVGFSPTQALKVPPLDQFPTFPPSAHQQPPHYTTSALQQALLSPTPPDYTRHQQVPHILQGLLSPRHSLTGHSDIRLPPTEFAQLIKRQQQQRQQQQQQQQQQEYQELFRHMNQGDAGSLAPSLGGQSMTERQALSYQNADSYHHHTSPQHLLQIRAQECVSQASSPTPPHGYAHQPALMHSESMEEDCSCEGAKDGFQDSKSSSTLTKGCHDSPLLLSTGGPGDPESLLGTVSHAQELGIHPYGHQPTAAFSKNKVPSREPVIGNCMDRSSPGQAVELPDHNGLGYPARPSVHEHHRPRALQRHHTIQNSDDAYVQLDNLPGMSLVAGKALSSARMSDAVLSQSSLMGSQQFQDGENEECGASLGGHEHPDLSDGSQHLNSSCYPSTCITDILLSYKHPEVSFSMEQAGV
Sequence of UniProt P15735 (whole entry, looked up): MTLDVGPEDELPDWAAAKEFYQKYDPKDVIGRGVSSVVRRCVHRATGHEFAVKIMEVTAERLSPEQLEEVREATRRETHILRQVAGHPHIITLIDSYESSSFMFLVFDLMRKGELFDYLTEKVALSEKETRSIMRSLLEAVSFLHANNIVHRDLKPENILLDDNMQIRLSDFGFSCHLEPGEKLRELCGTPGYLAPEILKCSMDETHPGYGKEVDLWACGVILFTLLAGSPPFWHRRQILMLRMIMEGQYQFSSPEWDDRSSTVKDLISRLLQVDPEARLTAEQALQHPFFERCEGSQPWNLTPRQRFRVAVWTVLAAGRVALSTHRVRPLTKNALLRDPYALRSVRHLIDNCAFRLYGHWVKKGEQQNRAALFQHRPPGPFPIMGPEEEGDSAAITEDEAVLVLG

Set 1
SMILES: CC(=O)N[C@@H](Cc1c[nH]c2ccccc12)C(=O)N[C@@H](CCC(=O)C=[N+]=[N-])C(=O)OC(C)C
Dose: dose not given
Baseline: vehicle
refers to: trigonelline; mouse, EL4 tumour, tumour — “log2 fold change”: 0.192.
The “log2 fold change” was 0.297 (refers to: N6-carboxymethyllysine; mouse, EL4 tumour-bearing, EL4 tumour).
It gave -1.27 for “log2 fold change” (refers to: phenyllactate; Mus musculus, EL4 tumour).
It gave -1.51 for “log2 fold change” (refers to: UDP-glucose; mouse, EL4 tumour-bearing, EL4 tumour).
The “log2 fold change” was -1 (refers to: N-acetyltaurine; mouse, EL4 tumour-bearing, EL4 tumour).

Set 2
Target: Ribosomal protein S6 kinase alpha-1 (RPS6KA1, Homo sapiens, UniProt Q15418)
Sequence of UniProt Q15418 (whole entry, looked up): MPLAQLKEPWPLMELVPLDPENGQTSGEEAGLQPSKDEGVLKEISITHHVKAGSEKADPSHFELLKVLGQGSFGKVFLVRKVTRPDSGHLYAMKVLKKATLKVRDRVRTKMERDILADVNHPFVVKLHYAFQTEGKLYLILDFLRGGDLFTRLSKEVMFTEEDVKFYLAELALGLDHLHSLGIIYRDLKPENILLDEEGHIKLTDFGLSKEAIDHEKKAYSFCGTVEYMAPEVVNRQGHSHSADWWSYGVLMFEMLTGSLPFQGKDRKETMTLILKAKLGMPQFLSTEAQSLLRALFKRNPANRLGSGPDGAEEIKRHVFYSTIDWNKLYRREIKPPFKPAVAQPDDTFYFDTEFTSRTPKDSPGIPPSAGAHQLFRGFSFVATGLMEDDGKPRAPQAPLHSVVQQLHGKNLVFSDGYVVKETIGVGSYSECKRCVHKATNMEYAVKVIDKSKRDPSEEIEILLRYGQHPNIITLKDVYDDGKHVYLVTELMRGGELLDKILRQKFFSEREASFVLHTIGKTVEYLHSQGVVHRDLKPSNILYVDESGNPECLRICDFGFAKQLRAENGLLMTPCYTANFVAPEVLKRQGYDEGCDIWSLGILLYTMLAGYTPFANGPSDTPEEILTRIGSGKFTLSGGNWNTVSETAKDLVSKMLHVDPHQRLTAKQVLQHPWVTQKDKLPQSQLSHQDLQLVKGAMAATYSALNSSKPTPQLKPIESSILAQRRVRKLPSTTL
Read-out: enzyme activity
Action: inhibitor
Concentration: 0.5 µM
Baseline: control
`Nc1ccc2ncnc(NCCc3ccc(Oc4ccccc4)cc3)c2c1` gave a remaining activity of 108%.
`CC(C)[C@H](CO)Nc1nc(Nc2cc(N)cc(Cl)c2)c2ncn(C(C)C)c2n1` gave a remaining activity of 37.2%.
With `COc1cc2nccc(Oc3ccc(NC(=S)NC(=O)c4ccccc4C)cc3)c2cc1OC` the remaining activity was 97.3%.
`Nc1ncnc2n[nH]c(Nc3ccc(F)cc3)c12` gave a remaining activity of 82.2%.
For `Cc1nc(-c2ccccc2)c(-c2ccncc2)o1`, the remaining activity was 103%.
`O=c1c2ccccc2[nH]c(=S)n1CCN1CCC(=C(c2ccc(F)cc2)c2ccc(F)cc2)CC1` gave a remaining activity of 97.9%.
For `NCCNc1ncc(C(N)=O)c(Nc2cccc(C(F)(F)F)c2)n1`, the remaining activity was 84.3%.
`O=S(=O)(c1cccc2cnccc12)N1CCCNCC1` gave a remaining activity of 89.2%.
`O=C(O)c1ccc2c3c1cccc3c(=O)n1c3ccccc3nc21` has a remaining activity of 101%.
For `O=C(Nc1cccc(Nc2cc(Nc3cccc(C(F)(F)F)c3)ncn2)c1)C1CC1`, the remaining activity was 95.1%.
The remaining activity of `CNC(=O)c1cc(Oc2ccc(NC(=O)Nc3ccc(Cl)c(C(F)(F)F)c3)cc2)ccn1` is reported as 101%.
`CN(C)c1ccc(C=C2C(=O)Nc3ccccc32)cc1` has a remaining activity of 78.4%.
With `COc1cc2ncnc(Nc3ccc(Oc4ccccc4)cc3)c2cc1OC` the remaining activity was 97.6%.
For `O=C1NC(=O)C(c2cn(CCCO)c3ncccc23)=C1c1cnccn1`, the remaining activity was 94.8%.

Set 3
SMILES: CN([C@@H]1CCc2c(CC(=O)O)c3ccccc3n2C1)S(=O)(=O)c1ccc(F)cc1
Read-out: cell-free assay
Technique: competition with immobilised ligand
Concentration: 1 µM
NEK9 (Homo sapiens, UniProt Q8TD19) — remaining binding: 100%.
It gave 100% for remaining binding (CSK (Homo sapiens, UniProt P41240)).
It gave 100% for remaining binding (PHKG2 (Homo sapiens, UniProt P15735)).
It gave 100% for remaining binding (NUAK2 (Homo sapiens, UniProt Q9H093)).
It gave 98% for remaining binding (SIK3 (Homo sapiens, UniProt Q9Y2K2)).
CDK16 (Homo sapiens, UniProt Q00536) — remaining binding: 98%.
The remaining binding was 100% (GRK4 (Homo sapiens, UniProt P32298)).
It gave 95% for remaining binding (EPHB4 (Homo sapiens, UniProt P54760)).

Set 4
Target: DNA polymerase theta, ATPase domain (POLQ, Homo sapiens, UniProt O75417)
Sequence of UniProt O75417 (whole entry, unmodified, looked up): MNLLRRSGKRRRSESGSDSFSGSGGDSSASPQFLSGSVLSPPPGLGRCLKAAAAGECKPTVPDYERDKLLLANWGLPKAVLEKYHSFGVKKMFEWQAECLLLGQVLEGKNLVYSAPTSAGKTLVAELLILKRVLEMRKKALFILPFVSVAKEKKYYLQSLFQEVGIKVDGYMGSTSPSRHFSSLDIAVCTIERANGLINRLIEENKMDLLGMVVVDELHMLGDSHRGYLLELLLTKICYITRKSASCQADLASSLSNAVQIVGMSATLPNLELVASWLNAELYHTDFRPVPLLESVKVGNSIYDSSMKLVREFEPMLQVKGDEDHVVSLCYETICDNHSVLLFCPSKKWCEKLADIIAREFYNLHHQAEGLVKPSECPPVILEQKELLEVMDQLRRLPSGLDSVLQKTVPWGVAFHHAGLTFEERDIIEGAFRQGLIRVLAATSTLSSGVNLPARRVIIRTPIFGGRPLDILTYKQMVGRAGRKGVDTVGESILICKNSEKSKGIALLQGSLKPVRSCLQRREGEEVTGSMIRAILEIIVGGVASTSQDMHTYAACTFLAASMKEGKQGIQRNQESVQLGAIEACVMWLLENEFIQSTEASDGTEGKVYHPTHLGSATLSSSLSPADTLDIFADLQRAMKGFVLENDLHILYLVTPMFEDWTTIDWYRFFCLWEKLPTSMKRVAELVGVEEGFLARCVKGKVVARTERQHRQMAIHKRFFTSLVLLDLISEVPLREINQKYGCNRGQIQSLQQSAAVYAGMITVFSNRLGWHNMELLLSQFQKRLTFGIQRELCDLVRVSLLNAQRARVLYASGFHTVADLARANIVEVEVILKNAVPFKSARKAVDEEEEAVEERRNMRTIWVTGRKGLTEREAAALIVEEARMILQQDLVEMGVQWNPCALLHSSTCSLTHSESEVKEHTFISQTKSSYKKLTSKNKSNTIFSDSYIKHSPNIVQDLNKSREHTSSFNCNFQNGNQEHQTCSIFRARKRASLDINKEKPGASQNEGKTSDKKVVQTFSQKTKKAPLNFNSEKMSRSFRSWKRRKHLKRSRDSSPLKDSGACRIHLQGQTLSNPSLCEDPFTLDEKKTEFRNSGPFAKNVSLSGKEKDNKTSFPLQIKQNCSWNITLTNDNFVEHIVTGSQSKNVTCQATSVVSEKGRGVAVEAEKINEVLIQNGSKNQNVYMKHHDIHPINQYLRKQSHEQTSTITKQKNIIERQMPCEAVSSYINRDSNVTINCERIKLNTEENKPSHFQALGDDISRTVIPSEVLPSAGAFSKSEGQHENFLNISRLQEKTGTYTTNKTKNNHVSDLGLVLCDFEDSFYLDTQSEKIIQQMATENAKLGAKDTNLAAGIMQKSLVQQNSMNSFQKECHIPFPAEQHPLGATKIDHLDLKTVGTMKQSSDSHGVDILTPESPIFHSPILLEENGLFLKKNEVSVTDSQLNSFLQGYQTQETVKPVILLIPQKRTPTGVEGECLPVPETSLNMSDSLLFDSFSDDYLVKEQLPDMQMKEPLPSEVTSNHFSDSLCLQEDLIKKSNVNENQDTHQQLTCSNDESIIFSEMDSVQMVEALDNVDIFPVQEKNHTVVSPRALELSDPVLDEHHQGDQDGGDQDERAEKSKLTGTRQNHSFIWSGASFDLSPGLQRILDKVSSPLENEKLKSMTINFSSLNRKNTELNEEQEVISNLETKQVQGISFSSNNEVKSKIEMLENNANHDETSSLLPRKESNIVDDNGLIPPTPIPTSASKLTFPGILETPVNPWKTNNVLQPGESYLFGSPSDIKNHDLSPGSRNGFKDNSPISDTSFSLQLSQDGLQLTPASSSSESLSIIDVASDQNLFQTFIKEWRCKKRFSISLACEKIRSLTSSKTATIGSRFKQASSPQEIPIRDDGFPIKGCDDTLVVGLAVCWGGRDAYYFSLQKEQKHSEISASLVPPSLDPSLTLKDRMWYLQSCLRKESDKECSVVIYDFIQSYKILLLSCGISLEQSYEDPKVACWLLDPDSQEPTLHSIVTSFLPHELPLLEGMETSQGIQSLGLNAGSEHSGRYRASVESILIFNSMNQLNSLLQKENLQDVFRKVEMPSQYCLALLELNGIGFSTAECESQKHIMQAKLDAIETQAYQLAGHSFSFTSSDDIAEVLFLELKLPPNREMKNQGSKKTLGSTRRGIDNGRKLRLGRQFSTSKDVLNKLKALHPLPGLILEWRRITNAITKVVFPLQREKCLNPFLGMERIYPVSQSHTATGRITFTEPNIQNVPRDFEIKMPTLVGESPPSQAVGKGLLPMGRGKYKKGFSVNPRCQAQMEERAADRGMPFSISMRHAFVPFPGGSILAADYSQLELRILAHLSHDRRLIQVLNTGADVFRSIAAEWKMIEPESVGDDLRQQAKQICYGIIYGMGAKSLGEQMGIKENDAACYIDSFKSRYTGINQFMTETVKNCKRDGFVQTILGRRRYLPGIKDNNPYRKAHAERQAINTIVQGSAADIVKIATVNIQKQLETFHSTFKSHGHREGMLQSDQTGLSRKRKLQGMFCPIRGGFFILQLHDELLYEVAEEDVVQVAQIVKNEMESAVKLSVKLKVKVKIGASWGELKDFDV
Read-out: enzyme activity
Action: inhibitor
Concentration: 77 µM
Baseline: untreated
`O=C(O)c1cc2cc(Cc3cccnc3)ccc2o1` gave a remaining activity of 99.7%.
With `COc1cc(Nc2ncc(F)c(Nc3ccc4c(n3)NC(=O)C(C)(C)O4)n2)cc(OC)c1OC` the remaining activity was 99.9%.
For `COC(=O)C1=C(C)NC(C)=C(C(=O)OC)C1c1cccc(NC(=O)NCCCN2CCC(c3cccc(OC)c3)CC2)c1`, the remaining activity was 104%.
With `Nc1ncnc2c1nc(Sc1ccc(Cl)cc1)n2C1OC2COP(=O)(O)O[C@@H]2[C@@H]1O` (some centres unmarked) the remaining activity was 97.4%.
For `CO[C@H]1C[C@@H]2CC[C@@H](C)[C@@](O)(O2)C(=O)C(=O)N2CCCC[C@H]2C(=O)O[C@H]([C@H](C)C[C@@H]2CC[C@H](n3cnnn3)[C@H](OC)C2)CC(=O)[C@H](C)/C=C(\C)[C@@H](O)[C@@H](OC)C(=O)[C@H](C)C[C@H](C)/C=C/C=C/C=C/1C`, the remaining activity was 98.8%.

A few entries again (set 1):
refers to: trigonelline; mouse, EL4 tumour, tumour — “log2 fold change”: 0.192.
The “log2 fold change” was 0.297 (refers to: N6-carboxymethyllysine; mouse, EL4 tumour-bearing, EL4 tumour).
It gave -1.27 for “log2 fold change” (refers to: phenyllactate; Mus musculus, EL4 tumour).
It gave -1.51 for “log2 fold change” (refers to: UDP-glucose; mouse, EL4 tumour-bearing, EL4 tumour).
